Assay results pooled from the literature.
± marks the error that the study gave. pIC50: −log10 of the molar value.
ABCB1: ATP-dependent translocase ABCB1 (ABCB1, Homo sapiens, UniProt P08183)
UniProt P08183, sequence (whole entry, looked up): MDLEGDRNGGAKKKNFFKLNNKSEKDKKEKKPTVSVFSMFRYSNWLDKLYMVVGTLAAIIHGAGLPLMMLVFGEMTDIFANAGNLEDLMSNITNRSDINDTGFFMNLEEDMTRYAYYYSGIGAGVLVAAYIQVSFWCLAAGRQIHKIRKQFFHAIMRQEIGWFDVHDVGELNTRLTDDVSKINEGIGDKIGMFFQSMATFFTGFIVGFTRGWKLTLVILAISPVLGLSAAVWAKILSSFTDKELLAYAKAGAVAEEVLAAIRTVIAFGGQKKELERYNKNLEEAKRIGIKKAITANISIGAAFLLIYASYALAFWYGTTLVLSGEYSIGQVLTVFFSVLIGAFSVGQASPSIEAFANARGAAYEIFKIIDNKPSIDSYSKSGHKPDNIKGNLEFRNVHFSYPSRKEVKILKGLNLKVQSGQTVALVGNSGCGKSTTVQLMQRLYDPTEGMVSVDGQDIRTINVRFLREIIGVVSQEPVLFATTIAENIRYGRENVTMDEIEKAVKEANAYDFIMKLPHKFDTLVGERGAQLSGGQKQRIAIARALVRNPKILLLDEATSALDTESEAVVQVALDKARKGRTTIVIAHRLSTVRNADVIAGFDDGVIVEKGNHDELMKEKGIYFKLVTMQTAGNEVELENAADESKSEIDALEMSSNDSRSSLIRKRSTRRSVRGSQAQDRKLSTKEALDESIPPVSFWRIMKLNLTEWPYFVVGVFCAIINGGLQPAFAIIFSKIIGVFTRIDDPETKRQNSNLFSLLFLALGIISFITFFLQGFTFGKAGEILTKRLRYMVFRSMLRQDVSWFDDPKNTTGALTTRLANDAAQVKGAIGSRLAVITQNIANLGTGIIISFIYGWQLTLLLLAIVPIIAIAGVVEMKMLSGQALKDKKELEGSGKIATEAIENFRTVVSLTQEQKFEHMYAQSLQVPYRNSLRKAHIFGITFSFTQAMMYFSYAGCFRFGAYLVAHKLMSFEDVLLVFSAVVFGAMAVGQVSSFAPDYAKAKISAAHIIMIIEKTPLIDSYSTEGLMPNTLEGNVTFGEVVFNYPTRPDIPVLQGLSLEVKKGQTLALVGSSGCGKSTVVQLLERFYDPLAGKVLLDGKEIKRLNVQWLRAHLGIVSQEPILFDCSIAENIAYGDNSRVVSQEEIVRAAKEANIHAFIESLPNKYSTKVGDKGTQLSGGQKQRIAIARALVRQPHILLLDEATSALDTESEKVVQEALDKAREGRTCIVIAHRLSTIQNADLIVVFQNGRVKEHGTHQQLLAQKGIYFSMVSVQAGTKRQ
DPP4: Dipeptidyl peptidase 4 (DPP4, Homo sapiens, UniProt P27487)
UniProt P27487, sequence (whole entry, looked up): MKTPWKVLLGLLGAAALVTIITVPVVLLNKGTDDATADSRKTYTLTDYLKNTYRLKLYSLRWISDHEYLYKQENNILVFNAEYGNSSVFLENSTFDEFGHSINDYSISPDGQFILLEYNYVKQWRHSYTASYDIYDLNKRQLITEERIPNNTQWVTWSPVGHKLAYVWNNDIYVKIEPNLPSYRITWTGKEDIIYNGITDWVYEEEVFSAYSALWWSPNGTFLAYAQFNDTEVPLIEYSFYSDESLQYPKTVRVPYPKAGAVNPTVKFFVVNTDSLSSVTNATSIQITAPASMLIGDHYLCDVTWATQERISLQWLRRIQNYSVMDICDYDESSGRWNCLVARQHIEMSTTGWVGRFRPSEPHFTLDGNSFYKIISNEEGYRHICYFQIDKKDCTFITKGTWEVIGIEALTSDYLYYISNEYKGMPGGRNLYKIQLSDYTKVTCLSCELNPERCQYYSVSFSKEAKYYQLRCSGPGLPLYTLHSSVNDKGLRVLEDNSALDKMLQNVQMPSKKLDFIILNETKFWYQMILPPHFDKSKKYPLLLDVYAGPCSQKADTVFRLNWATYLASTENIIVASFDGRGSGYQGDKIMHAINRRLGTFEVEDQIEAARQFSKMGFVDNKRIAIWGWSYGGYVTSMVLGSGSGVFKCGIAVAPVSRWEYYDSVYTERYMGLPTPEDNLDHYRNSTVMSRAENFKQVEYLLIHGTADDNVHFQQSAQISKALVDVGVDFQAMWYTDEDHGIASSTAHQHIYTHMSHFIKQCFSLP
CYP2C19: Cytochrome P450 2C19 (CYP2C19, Homo sapiens, UniProt P33261)
UniProt Q86VL8, sequence (whole entry, looked up): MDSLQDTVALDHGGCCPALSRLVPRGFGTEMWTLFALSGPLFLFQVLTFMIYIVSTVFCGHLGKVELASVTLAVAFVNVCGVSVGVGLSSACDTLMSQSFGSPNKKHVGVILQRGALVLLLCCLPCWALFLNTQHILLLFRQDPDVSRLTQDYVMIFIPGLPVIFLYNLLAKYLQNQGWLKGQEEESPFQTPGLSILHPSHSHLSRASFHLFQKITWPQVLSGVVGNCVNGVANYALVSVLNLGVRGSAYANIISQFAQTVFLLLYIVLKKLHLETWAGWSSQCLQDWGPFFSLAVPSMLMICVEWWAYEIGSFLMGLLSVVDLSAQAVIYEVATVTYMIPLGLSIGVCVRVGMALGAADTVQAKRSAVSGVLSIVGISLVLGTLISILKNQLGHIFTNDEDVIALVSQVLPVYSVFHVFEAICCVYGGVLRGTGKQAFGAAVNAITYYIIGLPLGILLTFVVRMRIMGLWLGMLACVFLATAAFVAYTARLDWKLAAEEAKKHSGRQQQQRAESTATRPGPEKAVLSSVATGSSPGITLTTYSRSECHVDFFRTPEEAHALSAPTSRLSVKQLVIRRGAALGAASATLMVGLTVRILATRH
UniProt P11712, sequence (whole entry, looked up): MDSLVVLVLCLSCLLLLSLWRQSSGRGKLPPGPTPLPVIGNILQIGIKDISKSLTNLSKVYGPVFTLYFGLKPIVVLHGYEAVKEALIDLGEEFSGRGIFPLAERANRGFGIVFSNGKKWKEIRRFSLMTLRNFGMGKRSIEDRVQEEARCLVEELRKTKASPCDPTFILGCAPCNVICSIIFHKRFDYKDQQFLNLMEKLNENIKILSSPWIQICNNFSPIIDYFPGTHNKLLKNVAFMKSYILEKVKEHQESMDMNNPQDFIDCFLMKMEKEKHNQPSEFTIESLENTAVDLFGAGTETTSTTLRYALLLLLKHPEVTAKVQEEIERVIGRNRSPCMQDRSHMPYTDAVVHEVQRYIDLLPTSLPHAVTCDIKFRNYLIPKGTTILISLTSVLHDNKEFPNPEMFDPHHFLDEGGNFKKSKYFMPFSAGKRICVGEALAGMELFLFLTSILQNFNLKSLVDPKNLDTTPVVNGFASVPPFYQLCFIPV
UniProt P10632, sequence (whole entry, looked up): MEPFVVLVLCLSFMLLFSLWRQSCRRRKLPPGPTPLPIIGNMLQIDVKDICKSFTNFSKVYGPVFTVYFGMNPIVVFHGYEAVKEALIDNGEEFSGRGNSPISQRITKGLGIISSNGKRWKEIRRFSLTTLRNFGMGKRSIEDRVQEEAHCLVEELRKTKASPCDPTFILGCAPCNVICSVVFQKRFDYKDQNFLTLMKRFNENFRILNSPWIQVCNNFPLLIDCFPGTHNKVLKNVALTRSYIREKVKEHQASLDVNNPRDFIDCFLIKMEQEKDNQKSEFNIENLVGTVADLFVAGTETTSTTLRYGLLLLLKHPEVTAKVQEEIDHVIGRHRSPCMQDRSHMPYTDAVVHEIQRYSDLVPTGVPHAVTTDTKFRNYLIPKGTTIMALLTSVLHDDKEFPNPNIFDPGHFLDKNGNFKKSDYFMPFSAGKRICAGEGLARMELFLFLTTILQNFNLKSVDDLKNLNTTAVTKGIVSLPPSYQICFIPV

SMILES	target	assay	test system	setting	how to read	endpoint	result
CSc1nc2[nH]nc([N+](=O)[O-])c(=O)n2n1	ABCB1	transport, inhibitor	–	100 µM, 5 (unit not given), pH 7, together with: NMN	–	inhibition	58.1%
CC[C@H](C)[C@H](NC(=O)[C@H](Cc1ccccc1)NC(=O)[C@H](CCC(=O)O)NC(=O)[C@H](CCCCN)NC(=O)[C@H](C)NC(=O)[C@H](C)NC(=O)[C@H](CCC(N)=O)NC(=O)CNC(=O)[C@H](CCC(=O)O)NC(=O)[C@H](CC(C)C)NC(=O)[C@H](Cc1ccc(O)cc1)NC(=O)[C@H](CO)NC(=O)[C@H](CO)NC(=O)[C@@H](NC(=O)[C@H](CC(=O)O)NC(=O)[C@H](CO)NC(=O)[C@@H](NC(=O)[C@H](Cc1ccccc1)NC(=O)[C@@H](NC(=O)CNC(=O)[C@H](CCC(=O)O)NC(=O)C(C)(C)NC(=O)N(N)Cc1c[nH]cn1)[C@@H](C)O)[C@@H](C)O)C(C)C)C(=O)N[C@@H](C)C(=O)N[C@@H](Cc1c[nH]c2ccccc12)C(=O)N[C@@H](CC(C)C)C(=O)N[C@H](C(=O)N[C@@H](CCCNC(=N)N)C(=O)NCC(=O)N[C@@H](CCCNC(=N)N)C(=O)NCC(=O)O)C(C)C	DPP4	HPLC-UV	Tris-HCl	0.1 mM, 8 h, pH 7.4, 37 °C, together with: DPP4 16 nM	–	remaining peptide	100%
CN[C@@H]1[C@H](O)[C@H](NC)[C@H]2O[C@]3(O)[C@H](O[C@@H]2[C@H]1O)O[C@H](C)C[C@H]3NC(=O)Cc1ccc(Cl)cn1	CYP2C19	–	–	10 µM	–	inhibition	-9%
CC[C@H](C)[C@H](NC(=O)[C@H](Cc1ccccc1)NC(=O)[C@H](CCC(=O)O)NC(=O)[C@H](CCCCN)NC(=O)[C@H](C)NC(=O)[C@H](C)NC(=O)[C@H](CCC(N)=O)NC(=O)CNC(=O)[C@H](CCC(=O)O)NC(=O)[C@H](CC(C)C)NC(=O)[C@H](Cc1ccc(O)cc1)NC(=O)[C@H](CO)NC(=O)[C@H](CO)NC(=O)[C@@H](NC(=O)[C@H](CC(=O)O)NC(=O)[C@H](CO)NC(=O)[C@@H](NC(=O)[C@H](Cc1ccccc1)NC(=O)[C@@H](NC(=O)CNC(=O)[C@H](CCC(=O)O)NC(=O)[C@H](C)NC(=O)[C@@H](N)Cc1c[nH]cn1)[C@@H](C)O)[C@@H](C)O)C(C)C)C(=O)N[C@@H](C)C(=O)N[C@@H](Cc1c[nH]c2ccccc12)C(=O)N[C@@H](CC(C)C)C(=O)N[C@H](C(=O)N[C@@H](CCCCN)C(=O)NCC(=O)N[C@@H](CCCNC(=N)N)C(=O)NCC(=O)N[C@@H](Cc1ccccc1)C(=O)N[C@@H](Cc1ccccc1)C(=O)NCC(=O)O)C(C)C	DPP-4 (recombinant)	substrate, LC-MS	–	500 µM, 1 h	–	remaining peptide	98%
CC[C@H](C)[C@H](NC(=O)[C@H](Cc1ccccc1)NC(=O)[C@H](CCC(=O)O)NC(=O)[C@H](CCCCN)NC(=O)[C@H](C)NC(=O)[C@H](C)NC(=O)[C@H](CCC(N)=O)NC(=O)CNC(=O)[C@H](CCC(=O)O)NC(=O)[C@H](CC(C)C)NC(=O)[C@H](Cc1ccc(O)cc1)NC(=O)[C@H](CO)NC(=O)[C@H](CO)NC(=O)[C@@H](NC(=O)[C@H](CC(=O)O)NC(=O)[C@H](CO)NC(=O)[C@@H](NC(=O)[C@H](Cc1ccccc1)NC(=O)[C@@H](NC(=O)CNC(=O)N(CCC(=O)O)NC(=O)[C@H](C)NC(=O)N(N)Cc1c[nH]cn1)[C@@H](C)O)[C@@H](C)O)C(C)C)C(=O)N[C@@H](C)C(=O)N[C@@H](Cc1c[nH]c2ccccc12)C(=O)N[C@@H](CC(C)C)C(=O)N[C@H](C(=O)N[C@@H](CCCNC(=N)N)C(=O)NCC(=O)N[C@@H](CCCNC(=N)N)C(=O)NCC(=O)O)C(C)C	DPP4	HPLC-UV	Tris-HCl	0.1 mM, 8 h, pH 7.4, 37 °C, together with: DPP4 16 nM	–	remaining peptide	100%
Cc1cc(-c2ccc3ccccc3c2)nnc1NCCN1CCN(C)CC1	SLC47A2 (Homo sapiens, UniProt Q86VL8)	transporter uptake, inhibitor	–	10 µM	–	inhibition	62%
C[C@@H](c1ccc2nccn2c1)n1nnc2nc(O)c(-c3cnn(C)c3)nc21	human CYP3A4/5	inhibitor	pooled human liver microsomes	reversible inhibition, together with: midazolam substrate	–	pIC50	4.46
CC(=O)NCCCC[C@@H]1NC(=O)[C@H](Cc2c[nH]c3c(C)cccc23)NC(=O)[C@H]([C@@H](C)O)NC(=O)[C@H](CC(N)=O)NC(=O)[C@@H](NC(C)=O)C(C)(C)SSC(C)(C)[C@@H](C(=O)N[C@@H](Cc2ccc(OCCN)cc2)C(=O)N[C@@H](Cc2ccc3ccccc3c2)C(=O)NC2(C(=O)N[C@@H](CCC(=O)O)C(=O)N[C@@H](CC(N)=O)C(=O)N[C@@H](Cc3cccnc3)C(=O)N(C)CC(N)=O)CCOCC2)NC1=O	ABCB1	transport, inhibitor	LLC-PK1 expressing MDR1	3 µM, 90 min, together with: [3H]digoxin	–	efflux ratio	16.6
N#Cc1c(Cl)ccc2c1C1(CCN(C(=O)c3cnc4[nH]ncc4c3)CC1)C(=O)N2CC(=O)NCC(F)(F)F	Cytochrome P450 2C9 (CYP2C9, Homo sapiens, UniProt P11712)	enzyme activity, inhibitor	–	–	–	pIC50	5.22
CCN(CC)CCOc1ccc(-c2nnn(Cc3ccc(OC)cc3)c2N)cc1	CYP2C19	CYP phenotyping	–	concentration not given	–	inhibition	1.4%
CNC(=O)C1CCCN(C(=O)C2CC3CCC2N3C(=O)[C@@H]2C[C@@H](O)CN2C(=O)NCc2cccc(Cl)c2F)C1 (mixture of isomers)	CYP3A4 (human)	inhibitor, time-dependent inhibition	–	0.206 µM, preincubated without NADPH, together with: midazolam substrate	relative to: negative control	remaining activity	99.9%
C[C@@H](c1ccc2nccn2c1)n1nnc2ncc(-c3cn[nH]c3)nc21	Cytochrome P450 2C8 (CYP2C8, Homo sapiens, UniProt P10632)	–	human liver microsomes	10 and 50 µM, 30 min preincubation, together with: ± NADPH	–	time-dependent inhibition	< 20%
